# Measured values gathered from unrelated publications.
# Each numbered part is a random draw from the data of one study; scales do not carry over between parts. Changes are numbered by the printed parent chain.

# Block 1
# Target: RING finger protein unkempt homolog, zinc fingers 1-6, GST-SBP tag (UNK, Homo sapiens, UniProt Q9C0B0, residues 30-357)
# Chain of UniProt Q9C0B0 (30-357, looked up): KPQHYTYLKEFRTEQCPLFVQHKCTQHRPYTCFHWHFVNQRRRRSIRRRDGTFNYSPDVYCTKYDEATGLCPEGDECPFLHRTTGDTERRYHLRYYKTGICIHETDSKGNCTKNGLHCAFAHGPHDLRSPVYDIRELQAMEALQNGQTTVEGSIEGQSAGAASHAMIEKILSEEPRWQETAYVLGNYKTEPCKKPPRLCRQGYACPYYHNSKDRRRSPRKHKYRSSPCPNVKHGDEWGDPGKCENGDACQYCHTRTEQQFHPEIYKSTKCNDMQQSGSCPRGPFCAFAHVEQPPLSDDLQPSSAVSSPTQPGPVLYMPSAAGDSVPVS
# Technique: RNA Bind-n-Seq
# Molecule type: RNA
# Sample: in vitro
# Tested at: not given
# Setting: RNA with constant flanks, ends assumed
# Baseline: input RNA pool
# Reading: higher = stronger binding
# Shared flanks, not repeated: GGGAGUUCUACAGUCCGACGAUC … CAACAGAGGAUUGAGCAUCA
Oligonucleotide,bound/input enrichment
CGGCUAAAGAUUGACUUUGGGGAAGCUGCCAGGGCAGAUGAUGCCCGGCAAUUAUUUGUUUCCGCUGGCAGUGCUGAAGAAGGAGUCAUGACUCCAGAACUAGCAGGAGUGAUUAAACGG,0.251 ratio
GGCCCGGCUGCGGCUGGAGGCCACGCGCCUCAGAGUUUGCUAUUGCGAAUACUGACCCCCCGCUUUGAAGGUAUUAGCGGAUUGUUACUGAAACAGCAUAUAGUUCCAAAUGCAGUCAGA,0.156 ratio
CUUACAAAUAAGUACUUAAAACAGAGCUUAAUGGGUAAAGCAACAGCUGUGUAAUCACAAACCCGAUGCAGAGGAGGUCUUGCCAGCACUCCAAAAUCUCUGUGUGUCCCCUCUUGACAC,0.142 ratio
GUUGUGUUUUGUUUUUGUUUCCUUUUGUUUAUGUUUUGGCCUUUCCUCUUUGUCUUUCCAUGCCGACCAGAUAUUUGAAAGGGCAGACGAUGGCUAGAGGUGUAAUGUGCAGCUUGUUUA,0.666 ratio
AAGAGUGCAGACGACUUUAUAGAUAAGCACAUUGCUGAAUUAAUAUUUUACAUGGAAGAACUCCGAGCACAUGUGAGGAAAUACGGACCUGUAAUGCAGAGGUAUUACGUGCAGUACCUU,0.631 ratio

# Block 2
# Target: CCNB2, cyclin fold, Cln2 fusion (human)
# Technique: yeast growth competition, sequencing
# Sample: yeast
# Setting: weak parent motif
# Baseline: not given
# Reading: higher = stronger binding
# Parent: INSM1 docking peptide (human); PKAIRKLHFEDEV
Change,normalised enrichment score
PKAARKLHFEDEV [I4A],0.459
PKAIRCLHFEDEV [K6C],-0.0491
PKAIRKLHFEKEV [D11K],0.605
PKAIRYLHFEDEV [K6Y],0.512
PKAIRKLPFEDEV [H8P],0.487
PKAIRKLHFVDEV [E10V],0.184
PKAIRKQHFEDEV [L7Q],0.111
PKAIRKLHFADEV [E10A],0.46
PVAIRKLHFEDEV [K2V],0.0676

# Block 3
# Target: Interferon regulatory factor 5, full length, phosphomimetic (IRF5, Homo sapiens, UniProt Q13568-2, residues 1-514, K96S/S451D/S453D/S456D/S462D)
# Technique: protein-binding microarray
# Molecule type: double-stranded DNA, one strand shown
# Sample: in vitro
# Tested at: 250 nM
# Setting: 60-bp whole probe
# Together with: salmon DNA 0.4 mg/ml
# Baseline: random background probes
# Reading: higher = stronger binding
# Shared flanks, not repeated: GCCTAGCAC … GTCTTGATTCGCTTGACGCTGCTG
Oligonucleotide,log fluorescence
CATCATTGCTTTCTCTTTCAGTGCTAG,4.7 z-score
TCAACTCTCTACATGGGACTGTGCTAG,-0.0483 z-score
CCTCTGCTCCTCTTTTTTTGGGTGCTA,0.232 z-score
GACGGTTTCCGGACTGGGGACGTGCTA,-0.0573 z-score
GACGGACAGCTTTTCCTGACGTGCTAG,-0.239 z-score
TGAGGTATCGGGTTTCGGTTAGTGCTA,7.71 z-score
TCATTTTTCTAAACCATACTGTGCTAG,1.02 z-score
TTAGATATCAGCCTCGATTAGTGCTAG,0.458 z-score
TTAGATTCCAGTTTCGAATAGTGCTAG,5.91 z-score
AGCATCTTCAAGACTCATAATGTGCTA,0.376 z-score
TTAGGACTCGGTCTCGGTTAGTGCTAG,0.213 z-score
GACGGTTTCGGTCTAGGGACGTGCTAG,9.65 z-score
GACGAACTGGGTATCGGGACGTGCTAG,0.526 z-score
TTAGGTTTCGGGACTGGTTTAGTGCTA,6.69 z-score

# Block 4
# Target: ABI1, truncated, D143A, DHFR fusion (Arabidopsis thaliana)
# Technique: DHFR PCA, deep sequencing
# Sample: yeast
# Setting: methotrexate growth selection, single substitutions
# Together with: (+)-ABA 710 µM
# Baseline: wild-type fitted maximum
# Reading: higher = stronger binding
# Parent: PYL1, truncated, DHFR fusion (Arabidopsis thaliana); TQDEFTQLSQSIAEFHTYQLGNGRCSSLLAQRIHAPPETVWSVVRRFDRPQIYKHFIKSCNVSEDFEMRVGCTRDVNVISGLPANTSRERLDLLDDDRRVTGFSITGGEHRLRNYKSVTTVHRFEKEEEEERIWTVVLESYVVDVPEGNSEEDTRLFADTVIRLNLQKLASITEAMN
Change,relative binding score
R24K,99.3%
D153P,2.51%
P83W,13.8%
A158D,-2.43%
R90E,95.1%
D48W,60.5%
V137R,2.43%
T1A,105%
D159A,85%
T135D,-1.29%
F66P,92.1%
Y141R,-3.81%

# Block 5
# Target: Transcriptional repressor CTCF (CTCF, Homo sapiens, UniProt P49711, residues 1-727, full length assumed)
# Chain of UniProt P49711 (whole entry, looked up): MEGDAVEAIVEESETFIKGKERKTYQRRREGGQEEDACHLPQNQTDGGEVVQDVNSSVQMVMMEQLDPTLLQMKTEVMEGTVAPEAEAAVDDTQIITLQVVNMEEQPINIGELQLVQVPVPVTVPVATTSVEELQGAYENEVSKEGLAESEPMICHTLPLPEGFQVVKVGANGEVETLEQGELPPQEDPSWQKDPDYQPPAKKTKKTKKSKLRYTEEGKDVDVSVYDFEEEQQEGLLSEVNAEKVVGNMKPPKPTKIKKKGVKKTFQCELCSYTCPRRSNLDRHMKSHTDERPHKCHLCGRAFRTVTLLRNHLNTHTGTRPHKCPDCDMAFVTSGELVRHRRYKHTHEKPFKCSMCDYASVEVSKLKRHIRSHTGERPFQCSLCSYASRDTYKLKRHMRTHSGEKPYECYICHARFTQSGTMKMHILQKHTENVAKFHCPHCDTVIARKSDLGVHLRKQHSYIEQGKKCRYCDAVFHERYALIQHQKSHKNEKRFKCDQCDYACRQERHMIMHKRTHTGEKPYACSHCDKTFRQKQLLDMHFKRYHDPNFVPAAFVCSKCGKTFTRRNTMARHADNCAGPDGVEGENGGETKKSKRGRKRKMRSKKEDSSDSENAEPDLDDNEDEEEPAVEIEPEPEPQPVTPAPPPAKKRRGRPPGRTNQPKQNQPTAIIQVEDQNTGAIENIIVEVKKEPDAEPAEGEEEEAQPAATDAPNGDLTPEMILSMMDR
# Technique: protein-binding microarray
# Molecule type: double-stranded DNA, one strand shown
# Sample: in vitro
# Tested at: not given
# Setting: k-mer, scored over probes, only values ≥0.25
# Reading: higher = stronger binding
Oligonucleotide,E-score
AAATAAAC,0.305
ACATGAGA,0.285
AGTGTTAT,0.287
CAAAAATA,0.316
ATAATACC,0.251
CGAATTTC,0.281
ATTATTAA,0.356
ATAACAAA,0.28
CATATTAC,0.26

# Block 6
# Target: Prothrombin, mature alpha-thrombin (F2, Homo sapiens, UniProt P00734)
# Technique: aptamer microarray, sandwich
# Molecule type: DNA with 2'F-ANA
# Sample: in vitro
# Tested at: 200 nM
# Setting: whole 15-mer aptamer, many near background
# Together with: Cy3 exosite-II aptamer, 400 nM
# Reading: higher = stronger binding
# Oligonucleotide: GGTTGGTGTGGTTGG
Modification,mean fluorescence intensity
2'F-ANA at 2 3 4 6 8 9 11 12 14 15,229 a.u.
2'F-ANA at 1 4 7 9 12 13 15,166 a.u.
2'F-ANA at 1 3 5 8 9 10 12 13 14 15,48.8 a.u.
2'F-ANA at 2 6 8 10 11 13 15,110 a.u.
2'F-ANA at 4 5 6 8 10 13 15,46.1 a.u.
2'F-ANA at 1 4 5 6 7 8 11 12 15,81.4 a.u.
2'F-ANA at 1 4 5 9 11 13 15,47.9 a.u.
2'F-ANA at 1 2 4 7 8 9 12 14,61.6 a.u.
2'F-ANA at 2 6 9 12 14 15,129 a.u.
2'F-ANA at 2 5 7 8 9 10 11,108 a.u.
2'F-ANA at 2 6 10 11 15,104 a.u.
2'F-ANA at 2 3 14,495 a.u.
2'F-ANA at 1 2 4 5 6 7 8 9 10 12 13 14 15,51.9 a.u.
2'F-ANA at 1 2 3 10 11 13 15,62.6 a.u.
2'F-ANA at 1 4 5 6 9 10 11 14 15,50.2 a.u.

# Block 7
# Target: Histone acetyltransferase KAT6A, both winged helices, GST fusion (KAT6A, Homo sapiens, UniProt Q92794, residues 1-181)
# Technique: protein binding microarray
# Molecule type: double-stranded DNA, one strand shown
# Sample: in vitro
# Tested at: not given
# Setting: 8-mer, flanks averaged, mean of 2 arrays, mostly near background
# Baseline: not given
# Reading: higher = stronger binding
# Target sequence (chain): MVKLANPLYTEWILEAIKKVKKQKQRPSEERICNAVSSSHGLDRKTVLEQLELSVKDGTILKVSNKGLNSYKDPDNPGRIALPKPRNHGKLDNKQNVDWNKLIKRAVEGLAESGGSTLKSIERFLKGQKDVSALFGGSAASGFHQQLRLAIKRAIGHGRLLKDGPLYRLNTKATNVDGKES
Oligonucleotide,E-score
GTGCTTTA,-0.108
CAACCTCG,0.0646
TTTCGAAA,-0.0142
GATCAGGA,-0.218
ACCGACTG,0.0569
CGTTCGCC,0.111
ACAGCCGG,0.23
TGCCCTAA,-0.146
ACTGGATC,-0.0614
CACCCTGC,-0.115
CGAATTCA,0.0737
GTCGAGGA,-0.147
AGGTGGAC,-0.16
GGCTCGCA,0.0328
AGTATCTG,-0.275
ACAAGCGG,0.162
CCCGTCGA,0.256

# Block 8
# Target: RNA binding protein fox-1 homolog 2, RRM domain, GST-SBP tag (RBFOX2, Homo sapiens, UniProt O43251-10, residues 100-194)
# Technique: RNA Bind-n-Seq
# Molecule type: RNA
# Sample: in vitro
# Tested at: 365 nM
# Setting: natural RNA segment, single round, ends assumed
# Baseline: no-protein control
# Reading: higher = stronger binding
# Shared flanks, not repeated: GGGAGUUCUACAGUCCGACGAUC … UGGAAUUCUCGGGUGCCAA
# Construct (chain): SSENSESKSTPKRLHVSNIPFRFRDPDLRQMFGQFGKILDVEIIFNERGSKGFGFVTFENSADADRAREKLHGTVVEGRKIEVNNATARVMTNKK
Oligonucleotide,RBNS enrichment (R)
ACUUUGUUUCAGGCUGGUCUGUGCCCCGUGAGCCACAUGGCCUAGGGUGAUGCCAGGUUGUCCCGUCACUGGGGUCCCAUCUGUAAAUUCUUUGCGCCCUUCCCGGCUGC,0.16
CACCAAGGUCACAGGAGCAUUGCGUCGCUGAUGGGGUUGAAGUUUGGUUUGGUUCUUGUUUCAGCCCAAUAUGUAGAGAACAUUUGAAACAGUCUGCACCUUUGAUACGG,0.954
CUGCACUUUUCCUUUCCAAAUGCAUCUCGUUGGAUAUGGAAUAGAUCGUAGAUGUUGUAGACUGAGAUUUGGGACUAUGUUGGGACCGUACAGGUGAAUGUGCCACCUCC,11.1
UCAAUUUUCCAGUUUGAUUGAAGUGCAGAGAAAAAUCCCUUAGAUUGCAAAAUAAAAUAGUUGAACUCUCUGUCUUCAUGUGGAAGGUUUAGAGCAGUUGUGAGAUGCUG,1.2
AGGUUGACCAGCAGUGGCCUUACCUGGCCUCUCAGGUGGAUGGAGGCUGUUCUCAUCUGGGGCUGUCUCUUGAUUAAGGCUGUCACCUGUUUGUAUAGGGACCAUGUUUC,0.286
UUCUCUAAGAGAACAAUGUGCUAUGUGAAGAGUAAGUCAACCUGCCUGACAUUUGGAGUGUUCCCCUUCCACUGAGGGCAGUCGAUAGAGCUGUAUUAAGCCACUUAAAA,0.401
CAAAUUUUAAGUCUUUCCCAGGUAUGUCAGUCGAGUUGCCAUGAAUCCUCACCUGUAGGAGUUUCUGGGAUUCAUUUUAAGGAAACUGGAAGAAAAUUAAUGUUUUAAUG,0.733
GAAAGGGGUUUAUGUAUAAAUAUAUUUUAUGCCUUUUUAUUACAAGUCUUGUACUCAAUGACUUUUGUCAUGACAUUUUGUUCUACUUAUACUGUAAAUUAUGCAUUAUA,1
UGUAUGUGUGUUGUGCAUCUUCCUUGUUGUUUUAGAGUUUCCUAAAUUUUUUGCUUCUGGGGACUUGAGUAUUUUUAAAUGUUCUUAAAAUUAUAUGAAUCUACCCAGAA,2.87

# A few entries again (block 7):
Oligonucleotide,E-score
ACCGACTG,0.0569
CGTTCGCC,0.111
GTCGAGGA,-0.147
ACTGGATC,-0.0614
ACAAGCGG,0.162
CAACCTCG,0.0646
